Results from different studies.
Each line is one published result; not all experiments were run side by side. ± marks the error that the study gave. Where no end group is shown, it is not given here. [ ]: non-standard residue; d: D form. The star is where a group is joined.

Molecule	cell line	assay	system	conditions	scale	quantity	value
[dL]VIA (D-Leu1)	PC-12	protection from Aβ1–42 toxicity, MTT		concentration not given, 6 h, Aβ to peptide ratio 1:1, added: Aβ1–42 2 µM	relative to: untreated cells	cell viability	70%
Cc1cn(-c2cc(NC(=O)c3ccc(C)c(Nc4nccc(-c5cccnc5)n4)c3)cc(C(F)(F)F)c2)cn1	K562 K562-T315I			48 h		GI50	1940 nM
VV[dV]A (D-Val3)	PC-12	protection from Aβ1–42 toxicity, MTT		concentration not given, 6 h, Aβ to peptide ratio 1:5, added: Aβ1–42 2 µM	relative to: untreated cells	cell viability	70%
COc1ccc(CC2COc3cc(OC)c(OC)c(OC)c3C2=O)cc1O (centres unmarked)	92-1 uveal melanoma cells	alamarBlue		48 h		GI50	> 100000 nM
CC1=C(C(=O)Nc2cc3cn[nH]c3cc2F)C(c2ccc(Cl)cc2F)N=C(c2ccnc(Cl)c2)N1 (centres unmarked)	NIH3T3 in HEY/NIH microtissues	fibroblast toxicity		chronic toxicity, unit not given	relative to: AC50 ATP over AC50 NanoLUC, day 7	therapeutic window	0.473
5FAM-KKSRRC(Farnesyl)VLS (N-5-FAM, S-farnesyl-Cys; 5FAM = O=C1OC2(c3ccc(O)cc3Oc3cc(O)ccc32)c2ccc(C(=O)*)cc21; Farnesyl = CC(C)=CCC/C(C)=C/CC/C(C)=C/C*)	PC-12	flow cytometry		1 µM, 2 h, 37 °C	relative to: other cell lines	cellular uptake	increased
TCVCGS	B16-F10		peptide	2 µg coated per well, 30 to 60 min	relative to: thrombospondin-coated wells	adherent cells	10%
Tumor necrosis factor alpha	human osteoclast precursors and osteoclasts	immunofluorescence, refers to: cleaved caspase-3		200 ng/mL, 24 h, added: PTHrP(12-48) 50 nM		apoptotic cells	~55%
VV[dL]A (D-Leu3)	PC-12	protection from Aβ1–42 toxicity, MTT		concentration not given, 6 h, Aβ to peptide ratio 1:10, added: Aβ1–42 2 µM	relative to: untreated cells	cell viability	73%
C/C(=N\N=C1/NC(=O)/C(=C\c2ccc(F)cc2)S1)c1ccccn1	HEp-2	cell growth or viability, SRB		100 µg/mL, 48 h		inhibition	67.7%
VV[dP]A (D-Pro3)	PC-12	protection from Aβ1–42 toxicity, MTT		concentration not given, 6 h, Aβ to peptide ratio 1:1, added: Aβ1–42 2 µM	relative to: untreated cells	cell viability	78.1%
O=NN(CCCl)C(=O)NCCCl	U-87 MG	cell growth or viability, WST-1		500 µM, 48 h		viability	11.6%
C#C[C@@]1(O)[C@@H](CO)O[C@@H](n2cc(Br)c3c(N)ncnc32)[C@@H]1O	U-251	cell growth or viability, SRB		48 h		GI50	22 nM
CSVTCR	B16-F10		peptide	2 µg coated per well, 30 to 60 min	relative to: thrombospondin-coated wells	adherent cells	92%
Cc1cc(C)c(C=NNc2nc(-c3ccc(C#N)cc3)cs2)c(C)c1	HCT-116	colony formation		5 µM, 24 h		inhibition	5 to 50%
Cc1nc(Nc2ncc(C(=O)Nc3c(C)cccc3Cl)s2)cc(N2CCN(CCO)CC2)n1	U-87 MG	fibronectin Boyden chamber		50 nM, 6 h	relative to: vehicle	cell invasion	40.3 ± 7.86%
C[C@@H]1C[C@H]2[C@@H]3CCC4=CC(=O)C=C[C@]4(C)[C@@]3(F)[C@@H](O)C[C@]2(C)[C@@]1(O)C(=O)CO	iPSC-derived intestinal progenitor cells	refers to: ISX		concentration not given	relative to: DMSO	mRNA level	increased
CC(C)NCC(O)c1ccc(O)c(O)c1 (centres unmarked)	hiPSC-derived 3D engineered cardiac tissue	contractility	serum-free medium	concentration not given, 15 min, paced at 1 Hz	relative to: time-matched vehicle	active force	increased
CCN1C(=O)C(C)S/C1=N/N=C(\C)c1ccccn1 (centres unmarked)	HEp-2	cell growth or viability, SRB		100 µg/mL, 48 h		inhibition	74.7%

Molecule	cell line	assay	system	conditions	scale	quantity	value
V[dL]IA (D-Leu2)	PC-12	protection from Aβ1–42 toxicity, MTT		concentration not given, 6 h, Aβ to peptide ratio 1:5, added: Aβ1–42 2 µM	relative to: untreated cells	cell viability	70%
CSCC[C@@H]1NC(=O)[C@H](CCCNC(=N)N)NC(=O)[C@H](C(C)C)NC(=O)[C@H](C(C)C)NC(=O)[C@H]([C@@H](C)O)NC(=O)[C@H](Cc2c[nH]c3ccccc23)NC(=O)CNC(=O)[C@H](CO)NC(=O)[C@H](Cc2ccc(O)cc2)NC1=O	MCF7, synchronized in early S phase	microinjection, time-lapse microscopy		50 µM		aberrant mitoses	46.1%
COc1cc(N2CCC(N3CCN(C)CC3)CC2)ccc1Nc1ncc(Cl)c(Nc2ccccc2S(=O)(=O)C(C)C)n1	NIH3T3 in HEY/NIH microtissues	fibroblast toxicity		168 h, chronic toxicity, unit not given	relative to: AC50 ATP over AC50 NanoLUC, day 7	therapeutic window	32
CN(CCOc1ccc(CC2SC(=O)NC2=O)cc1)c1ccccn1 (racemic)	primary bone marrow MSCs	refers to: CFU-OB and osteoblast markers		1 µM		osteoblast differentiation	decreased
O=C(O)CN(CC(=O)O)c1ccccc1OCCOc1ccccc1N(CC(=O)O)CC(=O)O	NCI-H838	inhibitor, refers to: cytosolic Ca2+		1 µM, added: PACAP-27 100 nM		PACAP-27-induced Ca2+ increase	inhibited
[dA]VIA (D-Ala1)	PC-12	protection from Aβ1–42 toxicity, MTT		concentration not given, 6 h, Aβ to peptide ratio 1:5, added: Aβ1–42 2 µM	relative to: untreated cells	cell viability	70%
CCc1ccc(C=C2SC(=S)NC2=O)cc1	human podocytes	RT-PCR or Western blot, refers to: VEGF-A165b and VEGF-A165a	normal glucose	10 µM, 48 h		VEGF-A165b/VEGF-A165a ratio	4.2
CSc1cccc(Nc2ncc3cc(-c4c(Cl)cccc4Cl)c(=O)n(C)c3n2)c1	NIH3T3 in HEY/NIH microtissues	fibroblast toxicity		chronic toxicity, unit not given	relative to: AC50 ATP over AC50 NanoLUC, day 7	therapeutic window	20.4
V[dV]IA (D-Val2)	PC-12	protection from Aβ1–42 toxicity, MTT		concentration not given, 6 h, Aβ to peptide ratio 1:10, added: Aβ1–42 2 µM	relative to: untreated cells	cell viability	70%
CC(C)CCC[C@@H](C)[C@H]1CC[C@H]2[C@@H]3CC[C@H]4C[C@@H](O[C@@H]5O[C@H](COS(=O)(=O)O)[C@@H](O[C@H]6O[C@H](COS(=O)(=O)O)[C@@H](O[C@H]7O[C@H](COS(=O)(=O)O)[C@@H](O[C@H]8O[C@H](COS(=O)(=O)O)[C@@H](OS(=O)(=O)O)[C@H](OS(=O)(=O)O)[C@H]8OS(=O)(=O)O)[C@H](OS(=O)(=O)O)[C@H]7OS(=O)(=O)O)[C@H](OS(=O)(=O)O)[C@H]6OS(=O)(=O)O)[C@H](OS(=O)(=O)O)[C@H]5OS(=O)(=O)O)CC[C@]4(C)[C@H]3CC[C@]12C	U-87 MG					EC50	103000 ± 2950 nM
CN(C)C/C=C(/c1ccc(Br)cc1)c1cccnc1	hiPSC-derived 3D engineered cardiac tissue	contractility	serum-free medium	concentration not given, 15 min, paced at 1 Hz	relative to: time-matched vehicle	active force	decreased
V[dI]IA (D-Ile2)	PC-12	protection from Aβ1–42 toxicity, MTT		concentration not given, 6 h, Aβ to peptide ratio 1:10, added: Aβ1–42 2 µM	relative to: untreated cells	cell viability	78.1%
RERMS	A-1 fibroblasts	cell number increase	peptide	concentration not given, 3 d, 10% FCS	relative to: basal increase	growth-promoting activity	active
CCn1c(C)c(/N=N/c2ccc(C)cc2)s/c1=N/N=C(\C)c1ccccn1	HEp-2	cell growth or viability, SRB		100 µg/mL, 48 h		inhibition	61.2%
Cc1cccc(/C=C/[C@]2(O)CC[C@H]3[C@@H]4CCc5cc(O)ccc5[C@H]4CC[C@@]32C)c1	Ishikawa	alkaline phosphatase induction, agonist		concentration not given, 3 d	relative to: estradiol	relative stimulatory activity	5 ± 1.4%
CCCc1nn(C)c2c(=O)[nH]c(-c3cc(S(=O)(=O)N4CCN(C)CC4)ccc3OCC)nc12	hiPSC-derived 3D engineered cardiac tissue	contractility	serum-free medium	concentration not given, 15 min, paced at 1 Hz	relative to: time-matched vehicle	active force	increased
CN(C)CCCN=c1c2ccccc2n(C)c2[nH]c(=O)n(C)c(=O)c12	NIH3T3 in HEY/NIH microtissues	fibroblast toxicity		chronic toxicity, unit not given	relative to: AC50 ATP over AC50 NanoLUC, day 7	therapeutic window	1.19
COc1cc(OC)cc(-c2n[nH]nc2-c2cc3ccccc3s2)c1	Hs-578T	cell growth or viability		48 h		GI50	< 100 nM
CC[C@H](C)[C@H](NC(=O)[C@@H](NC(=O)[C@@H](N)C(C)C)C(C)C)C(=O)N[C@H](C)C(N)=O	PC-12	Aβ42-induced neurotoxicity, inhibitor, MTT		concentration not given, 6 h, 37 °C, peptide to Aβ42 1:2, added: Aβ42 2 µM	relative to: untreated cells	viability	80.2%
